Experimental data gathered from unrelated publications.
Numbered parts are unrelated; each lists some results of a single study. Changes are numbered by the printed parent chain.

Block 1
Target: ABI1, truncated, D143A, DHFR fusion (Arabidopsis thaliana)
Technique: DHFR PCA, deep sequencing
Matrix: yeast
Setting: methotrexate growth selection, single substitutions
With: (+)-ABA 0.0091 µM
Relative to: wild-type fitted maximum
Direction: higher = stronger binding
Endpoint: relative binding score
Starting sequence: PYL1, truncated, DHFR fusion (Arabidopsis thaliana); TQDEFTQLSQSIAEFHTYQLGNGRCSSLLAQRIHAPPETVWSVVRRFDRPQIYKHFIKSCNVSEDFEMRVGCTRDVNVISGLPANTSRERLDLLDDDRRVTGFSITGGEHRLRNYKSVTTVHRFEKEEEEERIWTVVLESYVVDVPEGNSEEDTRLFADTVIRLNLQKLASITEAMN; partner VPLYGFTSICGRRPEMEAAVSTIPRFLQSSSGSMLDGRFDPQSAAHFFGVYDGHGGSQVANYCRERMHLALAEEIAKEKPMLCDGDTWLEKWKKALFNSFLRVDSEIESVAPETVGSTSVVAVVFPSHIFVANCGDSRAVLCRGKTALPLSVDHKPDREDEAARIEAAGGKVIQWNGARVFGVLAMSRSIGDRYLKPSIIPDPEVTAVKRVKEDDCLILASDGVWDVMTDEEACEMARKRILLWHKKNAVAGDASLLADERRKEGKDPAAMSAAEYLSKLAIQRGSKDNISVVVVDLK
I33Q: 1.05%
F124R: 1.54%
P50K: -3.84%
T106M: 42%
Q51P: 0.966%
Q167N: 5.09%

Block 2
Target: CCNA1, cyclin fold, Cln2 fusion (human)
Technique: yeast growth competition, sequencing
Matrix: yeast
Setting: weak parent motif
Relative to: not given
Direction: higher = stronger binding
Endpoint: normalised enrichment score
Starting sequence: PKMYT1 docking peptide (human); SFEPRNLLSLFED; partner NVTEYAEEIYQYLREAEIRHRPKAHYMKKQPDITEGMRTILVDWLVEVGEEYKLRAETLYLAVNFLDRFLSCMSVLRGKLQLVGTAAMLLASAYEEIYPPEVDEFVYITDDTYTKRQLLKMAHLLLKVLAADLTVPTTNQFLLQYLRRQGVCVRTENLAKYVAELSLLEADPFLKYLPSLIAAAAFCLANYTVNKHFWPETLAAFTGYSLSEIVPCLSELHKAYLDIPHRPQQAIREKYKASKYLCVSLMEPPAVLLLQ
L8G: 0.279
E3Q: 0.2
D13W: -0.132
S9K: -0.0533
L8W: 0.202
S1Y: -0.0293
L10W: 0.236
F2S: -0.0111
S9Y: 0.3
E12W: -0.0277
L7Y: 0.0759

Block 3
Target: Interferon regulatory factor 3, full length, phosphomimetic (IRF3, Homo sapiens, UniProt Q14653, residues 1-427, S386D/S396D/S398D/S402D/T404D/S405D)
Technique: protein-binding microarray
Molecule type: double-stranded DNA, one strand shown
Matrix: in vitro
Tested at: 2540 nM top
Setting: 60-bp whole probe
With: salmon DNA 0.4 mg/ml
Relative to: random background probes
Direction: higher = stronger binding
Endpoint: fitted relative affinity
All sequences stand within: GCCTAGCAC … GTCTTGATTCGCTTGACGCTGCTG
Residues (chain): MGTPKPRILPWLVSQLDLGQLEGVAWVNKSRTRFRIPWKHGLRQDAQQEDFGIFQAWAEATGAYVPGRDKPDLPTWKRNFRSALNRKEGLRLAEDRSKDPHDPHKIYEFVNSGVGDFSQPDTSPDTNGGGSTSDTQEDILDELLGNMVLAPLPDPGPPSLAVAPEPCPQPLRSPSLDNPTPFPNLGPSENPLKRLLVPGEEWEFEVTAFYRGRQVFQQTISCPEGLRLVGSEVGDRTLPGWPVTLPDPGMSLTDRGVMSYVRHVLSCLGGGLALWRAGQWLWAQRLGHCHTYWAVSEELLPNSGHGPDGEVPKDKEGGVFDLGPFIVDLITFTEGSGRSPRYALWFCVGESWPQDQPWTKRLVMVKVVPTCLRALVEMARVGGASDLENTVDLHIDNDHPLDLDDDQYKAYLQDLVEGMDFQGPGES
TTAGGTTACGACACTGGGTTAGTGCTA: -0.255 z-score
TTAGGTTCCGGTTTCAGTTAGTGCTAG: 5.89 z-score
AACGAACTGAGTCTCGAGACGTGCTAG: -0.217 z-score
GACGATTTCGGGTATCGAGTCGTGCTA: 2.05 z-score
CTCTCTTTCCAACTCTGTTTGTGCTAG: 3.79 z-score
TCTCTTTCCTTACTTCCCAATGTGCTA: 5.05 z-score
AGACAGTTGAGTTCTGTTGCAGTGCTA: -0.54 z-score
GATGGTATCGGGACTGGGGACGTGCTA: 1.25 z-score

Other studies, line by line
PhoQ, residues 284 288 289 292 302 303 SQSLSM
fold induction (PhoP, residues 12 14 15 18 19 AGCRL (Escherichia coli, UniProt P23836); Sort-seq, measured: YFP reporter; E. coli; PhoQ-PhoP variant library, with: 10 µM Mg2+; relative to: high Mg2+ state, higher = stronger signaling): 14.2

Repeated from above (block 3):
AACGAACTGAGTCTCGAGACGTGCTAG: -0.217 z-score
TCTCTTTCCTTACTTCCCAATGTGCTA: 5.05 z-score
